Published values collected from several papers.
Numbered parts are unrelated; each lists some results of a single study.

Block 1 — method: protein-binding microarray; molecule type: double-stranded DNA, one strand shown; medium: in vitro; tested at: 250 nM; notes: 60-bp whole probe; with: salmon DNA 0.4 mg/ml; reference: random background probes; reading: higher = stronger binding; constant ends, left off below: GCCTAGCAC … GTCTTGATTCGCTTGACGCTGCTG
Target: Interferon regulatory factor 7, full length, phosphomimetic (IRF7, Homo sapiens, UniProt Q92985, residues 1-503, S101K/S471D/S472D/S475D/S476D/S477D/S483D/S484D/S487D)
Construct (chain): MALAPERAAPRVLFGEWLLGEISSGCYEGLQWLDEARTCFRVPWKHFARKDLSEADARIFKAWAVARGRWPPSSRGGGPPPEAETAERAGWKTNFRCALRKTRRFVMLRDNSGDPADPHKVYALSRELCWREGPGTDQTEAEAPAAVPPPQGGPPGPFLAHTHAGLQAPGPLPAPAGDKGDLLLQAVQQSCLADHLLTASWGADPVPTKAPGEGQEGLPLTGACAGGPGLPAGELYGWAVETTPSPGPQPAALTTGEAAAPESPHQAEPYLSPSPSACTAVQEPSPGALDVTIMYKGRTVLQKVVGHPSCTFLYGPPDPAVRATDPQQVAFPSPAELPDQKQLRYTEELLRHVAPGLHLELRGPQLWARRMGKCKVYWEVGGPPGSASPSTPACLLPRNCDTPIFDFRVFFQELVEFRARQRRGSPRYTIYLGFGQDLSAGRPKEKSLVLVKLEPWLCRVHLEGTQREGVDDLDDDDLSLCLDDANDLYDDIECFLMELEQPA
| Oligonucleotide | log fluorescence |
| --- | --- |
| TTAGATTGCGGGTATCGATTAGTGCTA | 0.191 z-score |
| ATATGTATATATGTGTATATGTGCTAG | 0.496 z-score |
| TTAGGACTGGGTATCTGTTAGTGCTAG | -0.215 z-score |
| GACGATATCAGTTTCAAGACGTGCTAG | 0.327 z-score |
| TAAAATTTTGCTTCTAGAACGTGCTAG | -0.0486 z-score |
| GACAATTTCAGTATCGAGACGTGCTAG | 0.501 z-score |
| TTCCAAATGCCCTCTCCATACGTGCTA | 0.0663 z-score |
| GACGGACTGGACACTAGGGACGTGCTA | -0.549 z-score |
| GTAGGTTTCGGTCTCGGTTAGTGCTAG | 8.28 z-score |
| GACGGCTTCCTTATCCTGACGTGCTAG | 0.0219 z-score |
| TTAGGTTTCGACGATCGGTTAGTGCTA | 1.32 z-score |
| GACGGTTTCGGGTTTCGGAACGTGCTA | 12.7 z-score |
| GACGATATCACACTGGAGACGTGCTAG | -0.0298 z-score |
| TCAGAAATCTCAATGGGACTGTGCTAG | -0.216 z-score |
| GACGGTTTCCTTCTTCTGACGTGCTAG | 2.72 z-score |
| CAAGTTACGGAATTTCCCTCTGTGCTA | 1.29 z-score |
| GACGGTTTCCTTTTCCTGTCGTGCTAG | 7.68 z-score |
| GACGGTCTCGGACTGGAGACGTGCTAG | -0.00502 z-score |

Block 2 — method: protein binding microarray; molecule type: double-stranded DNA, one strand shown; medium: in vitro; tested at: not given; reference: not given; reading: higher = stronger binding
Target: Histone acetyltransferase KAT6A, both winged helices, GST fusion (KAT6A, Homo sapiens, UniProt Q92794, residues 1-181)
Notes: 8-mer, flanks averaged, mean of 2 arrays, mostly near background
Construct (chain): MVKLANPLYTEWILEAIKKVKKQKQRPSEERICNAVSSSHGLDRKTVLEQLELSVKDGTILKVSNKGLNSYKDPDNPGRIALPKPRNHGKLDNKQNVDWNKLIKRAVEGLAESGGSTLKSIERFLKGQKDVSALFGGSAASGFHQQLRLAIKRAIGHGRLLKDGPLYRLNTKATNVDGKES
| Oligonucleotide | E-score |
| --- | --- |
| ACCGCGCA | 0.318 |
| ATTTTAAG | -0.00659 |
| CAGCGCGC | 0.363 |
| CAGACCTC | 0.0012 |
| GAGGTGAC | -0.0794 |
| ATGGGCTA | -0.166 |
| ATAAACTA | -0.0389 |
| TACGGTGA | 0.131 |
| GGGTAGAC | 0.116 |
| AGCGCCGC | 0.353 |
| CAGCATGA | -0.274 |
| ACATCCTG | 0.00184 |
| CTGAACGA | -0.0957 |
| CCGAAACC | 0.0232 |
| CGGCGGAC | 0.275 |
| CGGCGCCC | 0.299 |
| TCGAAACA | -0.0287 |
| TAAATCCA | -0.158 |
| CAAAGCAG | -0.133 |
| CAGCGCTG | 0.344 |
| CGATTTGC | 0.0151 |
| AAATTAAA | -0.036 |

Block 3 — method: aptamer microarray, sandwich; molecule type: DNA with 2'F-ANA; medium: in vitro; tested at: 200 nM; with: Cy3 exosite-II aptamer, 400 nM; reading: higher = stronger binding; oligonucleotide: GGTTGGTGTGGTTGG
Target: Prothrombin, mature alpha-thrombin (F2, Homo sapiens, UniProt P00734)
Notes: whole 15-mer aptamer, many near background
| Modification | mean fluorescence intensity [a.u.] |
| --- | --- |
| 2'F-ANA at 9 10 14 | 118 |
| 2'F-ANA at 1 3 4 9 11 12 | 355 |
| 2'F-ANA at 1 2 5 6 7 9 10 11 13 14 | 52.5 |
| 2'F-ANA at 1 2 3 4 10 11 12 13 | 62.7 |
| 2'F-ANA at 1 2 5 9 12 14 | 47.5 |
| 2'F-ANA at 1 3 5 | 60.4 |
| 2'F-ANA at 2 3 4 5 6 10 13 14 | 90.7 |
| 2'F-ANA at 1 2 4 6 10 11 13 14 15 | 52.6 |
| 2'F-ANA at 3 5 6 7 8 9 10 12 13 14 15 | 51.6 |
| 2'F-ANA at 1 2 4 5 8 9 12 13 15 | 69.6 |
| 2'F-ANA at 1 3 4 6 8 10 11 12 | 70.7 |
| 2'F-ANA at 1 2 5 8 9 10 11 12 14 | 45.3 |
| 2'F-ANA at 5 8 9 11 | 74.6 |
| 2'F-ANA at 2 8 9 11 13 15 | 298 |
| 2'F-ANA at 1 2 3 6 8 11 13 14 15 | 69.7 |
| 2'F-ANA at 1 3 4 5 6 8 9 11 12 13 14 15 | 48.9 |
| 2'F-ANA at 1 3 4 5 6 8 9 12 14 15 | 53.1 |
| 2'F-ANA at 2 3 6 9 11 12 13 14 15 | 359 |
| 2'F-ANA at 1 4 6 9 11 14 | 48.7 |
| 2'F-ANA at 1 2 3 6 7 8 11 13 | 187 |
| 2'F-ANA at 2 4 6 8 9 11 15 | 229 |
| 2'F-ANA at 1 2 4 7 12 14 | 89 |
| 2'F-ANA at 1 2 3 7 9 10 14 | 57.2 |
| 2'F-ANA at 3 4 5 7 8 9 10 11 12 13 14 15 | 51.6 |

Block 4 — method: universal PBM; molecule type: double-stranded DNA, one strand shown; medium: in vitro; tested at: not given; reading: higher = stronger binding
Target: Sal-like protein 4, full length isoform B (SALL4, Homo sapiens, UniProt Q9UJQ4-2, residues 1-616)
Notes: 8-mer, flanks averaged, mean of replicates
Residues (chain): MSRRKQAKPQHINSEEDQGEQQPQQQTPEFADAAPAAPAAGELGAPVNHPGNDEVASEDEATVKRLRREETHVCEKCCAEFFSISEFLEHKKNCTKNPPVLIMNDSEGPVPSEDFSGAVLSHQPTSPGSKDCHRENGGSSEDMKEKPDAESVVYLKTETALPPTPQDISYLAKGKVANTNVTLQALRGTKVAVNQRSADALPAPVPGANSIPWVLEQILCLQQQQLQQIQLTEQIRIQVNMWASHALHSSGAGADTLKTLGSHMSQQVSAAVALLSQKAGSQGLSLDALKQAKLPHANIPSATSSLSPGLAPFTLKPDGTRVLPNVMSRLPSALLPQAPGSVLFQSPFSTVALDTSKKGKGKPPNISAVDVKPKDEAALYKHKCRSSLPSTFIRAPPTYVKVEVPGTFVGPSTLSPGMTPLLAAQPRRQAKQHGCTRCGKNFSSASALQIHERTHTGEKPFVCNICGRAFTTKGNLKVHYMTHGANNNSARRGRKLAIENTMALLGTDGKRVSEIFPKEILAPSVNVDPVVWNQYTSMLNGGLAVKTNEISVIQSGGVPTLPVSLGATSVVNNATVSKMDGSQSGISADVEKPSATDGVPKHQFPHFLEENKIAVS
| Oligonucleotide | E-score |
| --- | --- |
| AGTACCTG | 0.0123 |
| GTATCTGA | 0.0716 |
| AAAGCTTC | -0.0232 |
| ACTAAGTG | 0.0906 |
| GCGTTCCC | -0.103 |
| AACCCGCA | -0.102 |
| GTTACAAA | 0.169 |
| GCTGAGCC | -0.241 |
| CAAGACCG | -0.277 |
| ACCAGTTC | -0.158 |
| GGTAACGA | 0.0199 |
| AACGCGTA | 0.132 |
| GGCGCGCC | -0.164 |
| GGGCCCAC | -0.407 |
| CTGGAATC | -0.103 |
| GGGCGCTA | -0.302 |

Repeated from above (block 4):
| Oligonucleotide | E-score |
| --- | --- |
| GCTGAGCC | -0.241 |
| GTATCTGA | 0.0716 |
| AAAGCTTC | -0.0232 |
| GTTACAAA | 0.169 |
